Published values pooled from the literature.
Each numbered part is a random draw from the data of one study; scales do not carry over between parts. Changes are numbered by the printed parent chain.

Set 1 — target: CCNE2, cyclin fold, Cln2 fusion (human); method: yeast growth competition, sequencing; matrix: yeast; notes: strong parent motif; reference: not given; direction: higher = stronger binding
Starting sequence: CDKN1B docking peptide (human); PSACRNLFGPVDH
Substitution	normalised enrichment score
PSACPNLFGPVDH [R5P]	-0.379
PSACTNLFGPVDH [R5T]	-0.322
PSACRNLFGPVDV [H13V]	0.965
PSACRPLFGPVDH [N6P]	-0.0713
PSACRNLFGKVDH [P10K]	1.44
PSACRNLFGPVDR [H13R]	1.32
PSACRNLFGPQDH [V11Q]	1.6
PSACRNLHGPVDH [F8H]	0.303
PSACRNSFGPVDH [L7S]	0.37

Set 2 — method: RNA Bind-n-Seq; molecule type: RNA; matrix: in vitro; tested at: 200 nM; notes: whole 134-nt RNA, ends assumed; together with: 150 mM KCl; reference: input library; direction: higher = stronger binding
Target: Ras GTPase-activating protein-binding protein 1, full length (G3BP1, Homo sapiens, UniProt Q13283)
Chain of UniProt Q13283 (whole entry, looked up): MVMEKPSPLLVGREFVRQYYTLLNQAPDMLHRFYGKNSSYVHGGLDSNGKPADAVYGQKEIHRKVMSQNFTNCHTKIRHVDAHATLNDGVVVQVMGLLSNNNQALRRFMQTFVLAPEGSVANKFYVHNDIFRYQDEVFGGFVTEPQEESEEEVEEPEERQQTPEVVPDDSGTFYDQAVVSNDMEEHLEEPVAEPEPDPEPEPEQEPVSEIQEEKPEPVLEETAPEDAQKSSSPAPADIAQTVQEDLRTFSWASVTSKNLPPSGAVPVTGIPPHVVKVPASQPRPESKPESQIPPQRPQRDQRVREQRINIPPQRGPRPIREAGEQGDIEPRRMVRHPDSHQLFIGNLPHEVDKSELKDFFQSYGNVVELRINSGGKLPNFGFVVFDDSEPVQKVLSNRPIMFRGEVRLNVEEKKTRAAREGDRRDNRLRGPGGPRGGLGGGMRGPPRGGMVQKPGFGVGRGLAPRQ
Sequence	log2 enrichment
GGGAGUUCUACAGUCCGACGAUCCUGUGCUACACAUCGUAUGUACCGAAUCGGGAAAAAAAGGGAAAAAAAGGGAAAAAAAGGGGAAAGUAUUAUGUUACGCCGUUCGGAUCUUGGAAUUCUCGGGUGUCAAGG	-0.689
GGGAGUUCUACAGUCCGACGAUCCCUGUGCUACACAUCGUAUGUACCGAAUCGGGAAAAAAGGGGAAAAAAGGGGAAAAAAGGAAAGUAUUAUGUUACGCCGUUCGGAUCUGCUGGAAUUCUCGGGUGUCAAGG	-0.599
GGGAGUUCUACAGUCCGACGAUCUAACUUUAGAGGAGGAUCUGAUGGAUAUGGCAGUGGACGUGGAUUUGGGGAUGGCUAUAAUGGGGAUGGAGGAGGACCUGGAGGUGGCAAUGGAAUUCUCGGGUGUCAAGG	0.763
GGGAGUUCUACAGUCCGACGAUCGUCCUGUGCUACACAUCGUAUGUACCGAAUCGGCCCCCGGGGCCCCCGGGGCCCCCGGAAAGUAUUAUGUUACGCCGUUCGGAUCUGCACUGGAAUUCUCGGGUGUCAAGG	-1.93
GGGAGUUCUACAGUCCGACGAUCCACAGACAACACGCACCCACACAGCCACAGAGGGAAGGGGUUGGGAUGGGGACAGGGUGCACAGCAGGGCGGGGUAGGACCCCAGCCCCUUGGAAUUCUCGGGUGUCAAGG	1.81
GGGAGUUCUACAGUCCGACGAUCACCAUGCAGGUGGGCAUCUUUGGGAAGUGGGGCAAGGGGGGGAGAGGGAGGGGGGUAACACUUUGGGAACAGGUGGUCCCAGGUCGUUUCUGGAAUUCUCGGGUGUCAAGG	1.1
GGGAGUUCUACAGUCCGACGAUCUCCUGUGCUACACAUCGUAUGUACCGAAUCGGAAAAAAAGGUUUUUUUGGUUUUUUUGGAAAGUAUUAUGUUACGCCGUUCGGAUCUGCAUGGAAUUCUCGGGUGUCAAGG	-1.04
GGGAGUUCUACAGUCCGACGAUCUCAAGUCCUGUGCUACACAUCGUAUGUACCGAAUCGGAAAAAGGUUUGGUUUGGAAAGUAUUAUGUUACGCCGUUCGGAUCUGCACUUCCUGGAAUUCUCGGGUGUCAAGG	-1.06
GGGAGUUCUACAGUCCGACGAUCGCAGGAAGUAAAAACAAAUGGAAAUGCUUCGGAUAGUGGCAGGGGUGGGGGGUGCUAAGGAAAGGGUGGGAUGGGAGUGGGUAAAGAGUUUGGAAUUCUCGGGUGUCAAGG	1.2
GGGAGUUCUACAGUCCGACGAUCCCUGUGCUACACAUCGUAUGUACCGAAUCGGGGCCCCCCGGGGCCCCCCGGCCCCCCGGGGAAAGUAUUAUGUUACGCCGUUCGGAUCUGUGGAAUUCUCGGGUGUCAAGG	-0.817
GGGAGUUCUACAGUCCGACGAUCUAACUUUAGAGGAGGAUCUGAUGGAUAUGGCAGUGGACGUGGAUUUGGGGAUGGCUAUAAUGGGUAUGGAGGAGGACCUGGAGGUGGCAGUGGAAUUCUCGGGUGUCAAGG	0.34
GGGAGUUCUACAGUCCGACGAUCUCAAGUCCUGUGCUACACAUCGUAUGUACCGAAUCGGUUUGGAAAAAAAGGUGGAAAGUAUUAUGUUACGCCGUUCGGAUCUGCACUUCCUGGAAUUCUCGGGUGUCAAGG	-0.635
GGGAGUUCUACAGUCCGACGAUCUCCUGUGCUACACAUCGUAUGUACCGAAUCGGGGAAAAAAAGGGGUGGGGAAAAAGGGGAAAGUAUUAUGUUACGCCGUUCGGAUCUGCAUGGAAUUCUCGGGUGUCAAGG	0.746
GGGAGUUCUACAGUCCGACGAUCGUCCUGUGCUACACAUCGUAUGUACCGAAUCGGGUGGGUUUUUUUGGGAAAAAAAGGGAAAGUAUUAUGUUACGCCGUUCGGAUCUGCACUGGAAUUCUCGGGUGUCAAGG	-0.289

Set 3 — method: RNA Bind-n-Seq; molecule type: RNA; matrix: in vitro; tested at: not given; notes: RNA with constant flanks, ends assumed; reference: input RNA pool; direction: higher = stronger binding
Target: RING finger protein unkempt homolog, zinc fingers 1-6, GST-SBP tag (UNK, Homo sapiens, UniProt Q9C0B0, residues 30-357)
Construct (chain): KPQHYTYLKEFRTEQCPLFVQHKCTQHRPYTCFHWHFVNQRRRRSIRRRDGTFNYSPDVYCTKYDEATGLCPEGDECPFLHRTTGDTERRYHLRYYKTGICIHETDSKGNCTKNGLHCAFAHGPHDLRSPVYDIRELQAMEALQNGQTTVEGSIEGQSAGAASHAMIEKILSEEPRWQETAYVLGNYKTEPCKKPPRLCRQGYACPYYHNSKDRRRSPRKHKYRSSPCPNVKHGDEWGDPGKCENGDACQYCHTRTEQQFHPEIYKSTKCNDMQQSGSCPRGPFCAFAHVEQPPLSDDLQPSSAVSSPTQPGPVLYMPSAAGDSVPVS
Sequence	bound/input enrichment [ratio]
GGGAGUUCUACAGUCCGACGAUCAUGGAAAAGGAUUCUCUGCCUCGCUUUGUGCGCUCUGAGUUUUAUCAGGAGUUAAUCAAGCCGUAAUUUAGCCAGGCUAUGAAAUCAUCCUGUGAGUUAUUUCCUCCAUAAUAACCCUGCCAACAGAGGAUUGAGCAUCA	0.272
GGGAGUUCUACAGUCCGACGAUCCCUGCUCCCAAAUCAUGGGCCAGUAACAAGCAAGGUGGGCAAGGAGAUGGAAUCCAAGUGAACCGUCAAUUUCAGCAGGAAUUUCCCAGUCUGCAGGCAGCUGGAGAUCAGGAAAAAAAACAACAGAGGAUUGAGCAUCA	0.113
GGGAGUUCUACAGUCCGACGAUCUCAGACAUCUACGUGUGCAUGAUCUCCUAUGCACACAACGUGGCGGCCCAGGGCAAGUACACCGCUAUUGCCAGCACUACUGUGGAGACCACGGACCCUGAAAAGGAGGUGGAGCCGGCUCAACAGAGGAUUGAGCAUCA	0.0604
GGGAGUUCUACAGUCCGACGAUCGAAGCUCAGCACUUAACAACUGACACCCCAAAAGACGUAGAAAAGGUUUACAAAAUAAUCCCGUUUACGAAGAAAUCUUGUGCUAGAAUACUUUUUAAAGUAUUUUUGAAUACCAUUAAACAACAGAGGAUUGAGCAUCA	0.251
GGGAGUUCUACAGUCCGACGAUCAUCUUAUUACAGGGACUUGCUGUGCUUGCCAAGGAAAGACCACCAAAUCCCAUCGAGUUCCCCGCAUCUUAUCUUUUAAAAAACAAGGCGCAGUUUGAAGAUCGAAAUUGAUUUCUUGGGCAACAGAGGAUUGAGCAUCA	0.225
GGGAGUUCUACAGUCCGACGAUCGUAUUAAGUUCUUCUCCUGCUGAUAAAUUGGAUUCUCGAUUUAGGAAGGGAAAUUUUGGCACCCGAGAUGCUGAAACAGAUGGACCUGAGAAAGGAGAUCAAAAAGGCAAGGCUUCUCCACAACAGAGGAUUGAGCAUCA	0.328
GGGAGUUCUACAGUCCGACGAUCACUUUAAGUUGUUGGAAUUCCUUUAAGAAGAGUAUAAAUUAUUUUUUUUAUUUAAAAGGACCGUUGAUUCCUGGGGUACUUUGUUUUGAAAUUAGAAGUUGUUAAGGACACUUUUGUUGUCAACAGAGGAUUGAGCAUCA	4.82
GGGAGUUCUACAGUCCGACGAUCGCUGGUCAUCCUCUGGCCCAGAAUGAACGUUGUCUUCACAUGUUUUUACAGGAUGAAAUUACCGAUAAAAGCUAUACUCCAUCUAAAAUAAGACAUGCCUGAGUUUGGUGAGAAGAAGCACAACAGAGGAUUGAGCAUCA	0.266
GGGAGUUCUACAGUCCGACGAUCCUCCAGGUUCCAGUAAAAUUCUUCUGACCGAAACCAAUGUGGGUGUUAGAAAAAUUACCAUACCGCUUAAUAUGUUUAUUAGUUCUCUUUGGAAAAAAACUACCACUGUGGUCUUAAAAGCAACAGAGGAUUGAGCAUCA	0.352
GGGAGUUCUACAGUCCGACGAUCCCAAAUGGAUUGCUUCUGACUCCGAGUCCACUGCUCUCCAGCAUACAUUUCUGGAGCAGCCUCCGUCCAGUUGCUCCGCUGAGUCCUGCCAGGCUGCAAGGGCCAAGCACGCUGUUCCAGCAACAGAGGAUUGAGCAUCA	0.051

Other studies, line by line
Substance	target	assay	system	setting	scale	endpoint	value
PhoQ, residues 284 288 289 292 302 303 SLANKL	PhoP, residues 12 14 15 18 19 AQALL (Escherichia coli, UniProt P23836)	Sort-seq, item: YFP reporter	E. coli	PhoQ-PhoP variant library, together with: 10 µM Mg2+	reference: high Mg2+ state, higher = stronger signaling	fold induction	10.4

Some of these lines once more (set 1):
Substitution	normalised enrichment score
PSACRNLFGKVDH [P10K]	1.44
PSACRNLFGPVDV [H13V]	0.965
PSACTNLFGPVDH [R5T]	-0.322
PSACRNLFGPQDH [V11Q]	1.6
